{"data": "Measured values collected from several papers"}
{"Structure (SMILES)": "Cn1ncc2cc(-c3cncc(Cl)c3N3CCC4(CCNC4=O)CC3)ccc21", "cell line": "LS174T", "assay": "gene expression, microarray, item: SLC40A1 mRNA", "setting": "concentration not given, 4 h", "scale": "reference: untreated cells", "quantity": "log2 fold change", "value": -1.2}
{"Structure (SMILES)": "CC(C)c1ccc(N(C)c2ccc3c(c2)OCC[C@H]3CNc2cnccc2C(=O)O)cc1", "cell line": "DMS-53", "assay": "cell growth or viability, ATP luminescence", "setting": "7 days", "quantity": "IC50", "value": "≥ 10000 nM"}
{"Structure (SMILES)": "COc1ccccc1-c1ccncc1C(=O)Nc1nnc(OCc2ccc(Cl)cc2)s1", "cell line": "PEO1 BRCA2-mutant ovarian cancer", "setting": "1.00 µM, added: olaparib 0.25 µM", "quantity": "colony survival", "value": "0%"}
{"Structure (SMILES)": "C[C@H]1CN(c2ccc(Cl)c(Cl)c2)N=C1NC(=O)c1cnc(NCCOCCOCCNc2ncc(C(=O)NC3=NN(c4ccc(Cl)c(Cl)c4)C[C@@H]3C)cn2)nc1", "cell line": "K562", "assay": "cell growth or viability, ATP luminescence", "setting": "72 h", "quantity": "EC50", "value": "52 nM"}
{"Structure (SMILES)": "Cc1ncsc1-c1ccc(C(C)NC(=O)C2CC(O)CN2C(=O)C(NC(=O)CCCCCCCCCCN2CCCC(Nc3ncc(Cl)c(Nc4ccccc4S(=O)(=O)C(C)C)n3)C2)C(C)(C)C)cc1 (stereo not drawn)", "cell line": "22Rv1", "assay": "RNA-seq, item: UFSP1 mRNA", "setting": "concentration not given", "scale": "reference: DMSO", "quantity": "log2 fold change", "value": -2.27}
{"Structure (SMILES)": "CO[C@@H]1[C@@H](OC(N)=O)[C@@H](O)[C@H](Oc2ccc3c(O)c(NC(=O)c4ccc(O)c(CC=C(C)C)c4)c(=O)oc3c2C)OC1(C)C", "cell line": "HCT-116 parental", "setting": "75 µM, replicate 1", "quantity": "colony count", "value": 19}
{"Structure (SMILES)": "CCN(CC)CC(=O)Nc1cccc(-n2cc(-c3ccc4ccc(-c5cn(-c6cccc(NC(=O)CN(CC)CC)c6)nn5)cc4c3)nn2)c1", "cell line": "RCC4", "assay": "PCR angiogenesis array, item: BAI1", "setting": "5 x IC50, 6 h, normoxia", "scale": "reference: untreated", "quantity": "fold regulation", "value": -1.04}
{"Structure (SMILES)": "CN1CCCNC(=O)c2cccc(c2)C(=O)NCCCN(C)CCCNc2cccc3c2C(=O)c2cccc(c2C3=O)NCCC1", "cell line": "SAS", "assay": "RNA-Seq, item: SOD2 mRNA", "setting": "1 µM, 6 h", "scale": "reference: untreated cells", "quantity": "log2 fold change", "value": -1.71}
{"Structure (SMILES)": "CNS(=O)(=O)Nc1nccc(Cc2c(C)c3ccc(Oc4ncccc4F)cc3oc2=O)c1F", "cell line": "NCI-H28", "assay": "cell viability", "setting": "7 days", "quantity": "IC50", "value": "> 1000 nM"}
